# Assay results pooled from the literature.
# Protocols differ between the studies behind these lines.
# Target: Casein kinase I isoform gamma-2 (CSNK1G2, Homo sapiens, UniProt P78368)
# Chain of UniProt P78368 (whole entry, looked up): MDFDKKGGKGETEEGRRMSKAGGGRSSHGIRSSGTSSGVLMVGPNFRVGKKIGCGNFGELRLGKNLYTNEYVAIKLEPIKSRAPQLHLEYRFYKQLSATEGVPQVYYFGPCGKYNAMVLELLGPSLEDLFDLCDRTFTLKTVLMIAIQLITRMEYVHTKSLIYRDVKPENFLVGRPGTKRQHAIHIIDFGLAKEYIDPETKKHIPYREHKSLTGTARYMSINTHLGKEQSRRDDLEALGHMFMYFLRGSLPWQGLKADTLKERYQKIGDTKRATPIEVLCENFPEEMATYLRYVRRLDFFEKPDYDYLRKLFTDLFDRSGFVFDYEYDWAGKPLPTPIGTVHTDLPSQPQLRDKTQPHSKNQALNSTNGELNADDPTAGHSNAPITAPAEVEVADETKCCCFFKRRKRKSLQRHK
Compound,assay,conditions,how to read,endpoint,value
O=C1NC(=O)c2c1c1cc(F)c[n+]3c1c1c2c2cc(O)ccc2[n]1[Ru-4]312([N]=C=S)[S+]3CC[S+]1CC[S+]2CC3 (centres unmarked),enzyme activity,"100 nM, human enzyme, together with: 10 µM ATP",baseline: untreated,remaining activity,-3%
CCOC(=O)[C@@H]1Cc2c(cc([N+](=O)[O-])cc2[N+](=O)[O-])[C@H](O)[C@]12C(=O)Nc1ccc(Br)cc12,KINOMEscan,100 nM,baseline: DMSO control,remaining binding,91%
O=C(CN1CN(c2ccccc2)C2(CCN(C(=O)c3cnc4[nH]ncc4c3)CC2)C1=O)NCC(F)(F)F,inhibitor,concentration not given,,inhibition,< 50%
CS(C)(=O)=Nc1ccc(-c2ccc(-c3nc4cc(O[C@@H]5CO[C@H]6[C@@H]5OC[C@H]6O)[nH]c4cc3F)cc2)cc1,"enzyme activity, inhibitor",10 µM,,inhibition,6%
Nc1ccc(/C=C/C(=O)N2CCc3c(oc4c(-c5ccc(F)cc5)cc(-c5ccc(C(=O)N6CCC(F)(F)CC6)cn5)cc34)C2)cn1,"binding, competition with immobilised ligand",1 µM,,remaining binding,100%
CC(C)[C@H]1NC(=O)C[C@H]2/C=C/CCSSC[C@@H](NC1=O)C(=O)N[C@H](Cc1cccc3ccccc13)C(=O)NCC(=O)O2,"enzyme activity, inhibitor",10 µM,,inhibition,0%
C[C@H](NCc1ccc(-c2ccc(C(F)(F)F)cc2)cc1)C(N)=O,"cell-free assay, competition with immobilised ligand",1 µM,,inhibition,2%
CN(C)[C@H]1C[C@@]23CC[C@@]4(O2)C(=CC[C@]2(C)[C@@H](c5ccc6ccncc6c5)CC[C@H]24)C=C3[C@@H](O)[C@@H]1O,"ATP probe labelling, inhibitor, KiNativ profiling",1 µM,,inhibition,-3.5%
